{"data": "Experimental data collected from several papers", "note": "A part holds a random share of what one study measured."}
{"data": "Series 1", "target": "Sal-like protein 4, full length isoform B (SALL4, Homo sapiens, UniProt Q9UJQ4-2, residues 1-616)", "method": "universal PBM", "form": "double-stranded DNA, one strand shown", "medium": "in vitro", "tested at": "not given", "notes": "8-mer, flanks averaged, mean of replicates", "direction": "higher = stronger binding"}
{"Sequence": "GTGGGCAA", "E-score": -0.097}
{"Sequence": "ATGTGAGG", "E-score": 0.0732}
{"Sequence": "ACCGTATA", "E-score": 0.0623}
{"Sequence": "GGCGCGAC", "E-score": -0.297}
{"data": "Series 2", "target": "Histone acetyltransferase KAT6A, winged helix 1, GST fusion (KAT6A, Homo sapiens, UniProt Q92794, residues 1-85)", "method": "protein binding microarray", "form": "double-stranded DNA, one strand shown", "medium": "in vitro", "tested at": "not given", "notes": "8-mer, flanks averaged, mean of 2 arrays, mostly near background", "reference": "not given", "direction": "higher = stronger binding", "Residues (chain)": "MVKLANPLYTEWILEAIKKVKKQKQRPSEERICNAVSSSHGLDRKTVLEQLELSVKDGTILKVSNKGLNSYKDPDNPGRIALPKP"}
{"Sequence": "TAATTCGA", "E-score": -0.232}
{"Sequence": "TCTTAGCA", "E-score": -0.136}
{"Sequence": "CGATTCAC", "E-score": -0.0379}
{"Sequence": "ATCAAGCA", "E-score": -0.221}
{"Sequence": "CGAGAGGA", "E-score": -0.129}
{"Sequence": "AACGCCTG", "E-score": -0.122}
{"Sequence": "ACTCATAT", "E-score": -0.106}
{"data": "Series 3", "target": "RING finger protein unkempt homolog, zinc fingers 1-6, GST-SBP tag (UNK, Homo sapiens, UniProt Q9C0B0, residues 30-357)", "method": "RNA Bind-n-Seq", "form": "RNA", "medium": "in vitro", "tested at": "not given", "notes": "RNA with constant flanks, human and mouse sites, ends assumed", "reference": "input RNA pool", "direction": "higher = stronger binding", "UniProt Q9C0B0, sequence (30-357, looked up)": "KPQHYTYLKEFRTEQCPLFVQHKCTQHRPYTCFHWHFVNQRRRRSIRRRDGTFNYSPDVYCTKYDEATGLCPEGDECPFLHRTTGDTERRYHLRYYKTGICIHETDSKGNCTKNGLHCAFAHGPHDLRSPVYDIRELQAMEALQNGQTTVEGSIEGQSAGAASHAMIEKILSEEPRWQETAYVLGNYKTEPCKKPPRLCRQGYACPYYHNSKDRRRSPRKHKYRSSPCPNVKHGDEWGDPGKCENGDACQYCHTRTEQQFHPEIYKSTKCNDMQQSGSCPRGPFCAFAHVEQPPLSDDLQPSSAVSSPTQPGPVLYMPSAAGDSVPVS"}
{"Sequence": "GGGAGUUCUACAGUCCGACGAUCCUGAUAGUGACUUCCUUACUAUUGCUUCCUGGACUAAACCAACAUGGAAUCAUUUUGAAGUACAUUGGAAUGGCCAAGAGGGAGAUAAACAAACUUCUCAAACAAAAAGAAAAGAAAAACCAACAGAGGAUUGAGCAUCA", "bound/input enrichment [ratio]": 0.275}
{"Sequence": "GGGAGUUCUACAGUCCGACGAUCCACUGGGUCUACUAUCUGUAAAAAAUAUACAUAUAAAUAUAUAUAUACUGUUUGUUUAAAAUAGAGUAUUUUUAUUUCAUUCCUUAACUCAUCAUCACAGCAGUGGUAUUGCACUUCAGACAACAGAGGAUUGAGCAUCA", "bound/input enrichment [ratio]": 2.01}
{"Sequence": "GGGAGUUCUACAGUCCGACGAUCGAGAGCGAGGAGCACUACCACCUGGACGUGGCCAUCAAGACCAUGAACAAGGUUGCCAGUCACAUCAAUGAGAUGCAGAAAAUCCAUGAAGAGUUUGGGGCUGUGUUUGACCAGCUGAUUCAACAGAGGAUUGAGCAUCA", "bound/input enrichment [ratio]": 0.106}
{"Sequence": "GGGAGUUCUACAGUCCGACGAUCUUUUCUAGGAUGUCUUCUGAGAUUGGAAGGGAAAAGAGUCAGGACUGGGGCUCUGCUGGACUAGGAGGAGUAUUUAAGGUGGAGUGGAUACGAAAAGAAAGCCUUCCCUUUCAAUUUGCACAACAGAGGAUUGAGCAUCA", "bound/input enrichment [ratio]": 1.58}
{"data": "Mixed results"}
{"Molecule": "PhoQ, residues 284 288 289 292 302 303 SIHMAM", "target": "PhoP, residues 12 14 15 18 19 IFFTR (Escherichia coli, UniProt P23836)", "assay": "Sort-seq, item: YFP reporter", "system": "E. coli", "conditions": "PhoQ-PhoP variant library, together with: 10 µM Mg2+", "how to read": "reference: high Mg2+ state, higher = stronger signaling", "measurement": "fold induction", "result": 1.32}
